Earlier results, collected from citations in different studies.
Lines come from different studies, so protocols differ. ± gives the spread as reported.

`CC[C@H](C)[C@H](NC(=O)[C@H](Cc1ccccc1)NC(=O)[C@H](CCC(=O)O)NC(=O)[C@H](CCCCN)NC(=O)[C@H](C)NC(=O)[C@H](C)NC(=O)[C@H](CCC(N)=O)NC(=O)CNC(=O)[C@H](CCC(=O)O)NC(=O)[C@H](CC(C)C)NC(=O)[C@H](Cc1ccc(O)cc1)NC(=O)[C@H](CO)NC(=O)[C@H](CO)NC(=O)[C@@H](NC(=O)[C@H](CC(=O)O)NC(=O)[C@H](CO)NC(=O)[C@@H](NC(=O)[C@H](Cc1ccccc1)NC(=O)[C@@H](NC(=O)CNC(=O)[C@H](CCC(=O)O)NC(=O)[C@H](C)NC(=O)[C@@H](N)Cc1c[nH]cn1)[C@@H](C)O)[C@@H](C)O)C(C)C)C(=O)N[C@@H](C)C(=O)N[C@@H](Cc1c[nH]c2ccccc12)C(=O)N[C@@H](CC(C)C)C(=O)N[C@H](C(=O)N[C@@H](CCCCN)C(=O)NCC(=O)N[C@@H](CCCNC(=N)N)C(N)=O)C(C)C` has a half-life of under 0.0333 h (in vivo).
With `C1=C2CCCN[C@H]2[C@@H]2C[C@H]1[C@H]1CCCCN1C2` the IC50 was 1.75 µM (HIV-1 NL4-3 Nanoluc; viral replication; MT-4).
With `NC(=S)NN=Cc1cc2ccccc2nc1SCC(=O)Nc1ccc(Cl)cc1` the IC50 was 25.75 ± 0.19 µM (tyrosinase; inhibitor).
For `CCc1nn(C)c2nc(-c3ccc(C(=O)O)cc3)nc(NCc3ccc(F)cc3)c12`, the CC50 was over 100 µM (HCT-8; cytotoxicity).
With `CC[C@H](C)[C@H](NC(=O)[C@@H]1CCCN1C(=O)CNC(=O)[C@H](Cc1ccccc1)NC(=O)[C@H](CC(N)=O)NC(=O)[C@H](CC(N)=O)NC(=O)[C@H](CO)NC(=O)[C@H](CO)NC(=O)[C@H](Cc1c[nH]cn1)NC(=O)[C@H](CCCNC(=N)N)NC(=O)[C@H](CC(C)C)NC(=O)[C@H](Cc1ccccc1)NC(=O)[C@H](CCC(=O)O)NC(=O)[C@H](C)NC(=O)[C@H](CC(C)C)NC(=O)[C@H](CCCNC(=N)N)NC(=O)[C@H](CCC(N)=O)NC(=O)[C@@H](NC(=O)[C@H](C)NC(=O)[C@@H]1CSSC[C@H](NC(=O)[C@H](CCCCN)NC(=O)CC[C@H](NC(=O)CCCCCCCCCCCCCCCCCCC(=O)O)C(=O)O)C(=O)N[C@@H](CC(N)=O)C(=O)N[C@@H]([C@@H](C)O)C(=O)N[C@@H](C)C(=O)N[C@@H]([C@@H](C)O)C(=O)N1)[C@@H](C)O)C(=O)N[C@@H](CC(C)C)C(=O)N1CCC[C@H]1C(=O)N1CCC[C@H]1C(=O)N[C@H](C(=O)N[C@@H](CC(N)=O)C(=O)N[C@H](C(=O)NCC(=O)N[C@@H](CO)C(=O)N[C@@H](CC(N)=O)C(=O)N[C@H](C(=O)N1CCC[C@H]1C(N)=O)[C@@H](C)O)C(C)C)[C@@H](C)O` the half-life was 158 to 194 h (human; 0.16 to 4.5 mg).
The EC50 of `CC(=O)Oc1ccccc1C(=O)Nc1ncc([N+](=O)[O-])s1` is reported as 2 µM (Cryptosporidium parvum; parasite growth; Iowa).
For `CNC(=O)c1cc(Oc2ccc(NC(=O)Nc3ccc(Cl)c(C(F)(F)F)c3)cc2)ccn1`, the IC50 was 8.38 µM (HepG2).

Excerpt of the above:
`CC[C@H](C)[C@H](NC(=O)[C@H](Cc1ccccc1)NC(=O)[C@H](CCC(=O)O)NC(=O)[C@H](CCCCN)NC(=O)[C@H](C)NC(=O)[C@H](C)NC(=O)[C@H](CCC(N)=O)NC(=O)CNC(=O)[C@H](CCC(=O)O)NC(=O)[C@H](CC(C)C)NC(=O)[C@H](Cc1ccc(O)cc1)NC(=O)[C@H](CO)NC(=O)[C@H](CO)NC(=O)[C@@H](NC(=O)[C@H](CC(=O)O)NC(=O)[C@H](CO)NC(=O)[C@@H](NC(=O)[C@H](Cc1ccccc1)NC(=O)[C@@H](NC(=O)CNC(=O)[C@H](CCC(=O)O)NC(=O)[C@H](C)NC(=O)[C@@H](N)Cc1c[nH]cn1)[C@@H](C)O)[C@@H](C)O)C(C)C)C(=O)N[C@@H](C)C(=O)N[C@@H](Cc1c[nH]c2ccccc12)C(=O)N[C@@H](CC(C)C)C(=O)N[C@H](C(=O)N[C@@H](CCCCN)C(=O)NCC(=O)N[C@@H](CCCNC(=N)N)C(N)=O)C(C)C` has a half-life of under 0.0333 h (in vivo).
